Results from different studies.
Compare with care: the assays were run in different laboratories. ± marks the error that the study gave.

`CC[C@H](C)[C@H](NC(=O)[C@H](CCCCN)NC(=O)CNC(=O)[C@H](CC(C)C)NC(=O)[C@H](Cc1ccccc1)NC(=O)[C@H](CCCCN)NC(=O)[C@H](CO)NC(=O)[C@H](Cc1ccccc1)NC(=O)[C@H](Cc1c[nH]c2ccccc12)NC(=O)[C@H](CCC(N)=O)NC(=O)[C@@H](NC(=O)[C@H](Cc1ccccc1)NC(=O)CCCCCNC(=O)CN1CCN(CC(=O)O)CCN(CC(=O)O)CCN(CC(=O)O)CC1)C(C)C)C(=O)N[C@@H](CCC(=O)O)C(=O)N1CCC[C@H]1C(=O)N[C@@H](CC(=O)O)C(=O)N[C@H](C(=O)N[C@@H](CO)C(=O)N[C@@H](CCC(N)=O)C(=O)N[C@H](C(=O)N[C@@H](CCC(N)=O)C(=O)N[C@@H](CC(=O)O)C(=O)N1CCC[C@H]1C(=O)N[C@@H](CC(N)=O)C(=O)N[C@@H](CC(=O)O)C(=O)N[C@@H](CCC(N)=O)C(=O)N[C@@H](Cc1ccc(O)cc1)C(=O)N[C@@H](CCC(=O)O)C(=O)N1CCC[C@H]1C(=O)N[C@@H](Cc1ccccc1)C(=O)O)C(C)C)C(C)C` [copper-64 labelled] has a tissue uptake of 2.49 ± 0.4 %ID/g (C57BL/6 mice, male, tumour-free, heart; 1 h).
`CC(C)=CCC/C(C)=C\CCn1cc(CC(P(=O)(O)O)P(=O)(O)O)nn1` gave a biliary excretion of 0.33% (mouse CD-1; intravenous, 0.3 mg/kg, 2 h; reference: dose).
The AUC(0-t) of `NC1CCN(C(=O)Oc2ccc(C3CCCC4(C3)OOC3(O4)C4CC5CC(C4)CC3C5)cc2)CC1` (racemic) is reported as 1130 ng·h/mL (male ICR mice, plasma; intravenous, 10 mg/kg).
`N#[11C]c1ccc(-c2csc(NN=C3CCCC3)n2)cc1`: “uptake in stomach with contents” 11.4 ± 2.72 %ID/g (C57BL/6 mouse, male; intravenous, 3 MBq, 60 min).
For `CC(C)NCCCn1c(Sc2cc3c(cc2I)OCO3)nc2c(N)ncnc21`, the tumour concentration was 0.52 ± 0.13 µM (LC-MS/MS; mouse, MDA-MB-468 xenograft, tumour; 5 mg/kg 3 times weekly, 24 h post Wednesday dose).
The organ weight of `CC(C)[C@H](NC(=O)[C@@H](NC(=O)[C@H](CCCNC(=N)N)NC(=O)[C@H](CCCNC(=N)N)NC(=O)[C@H](CCCNC(=N)N)NC(=O)[C@H](CCC(N)=O)NC(=O)[C@H](CCCNC(=N)N)NC(=O)[C@H](CCCNC(=N)N)NC(=O)[C@H](CCCCN)NC(=O)[C@H](CCCCN)NC(=O)[C@H](CCCNC(=N)N)NC(=O)CN)[C@@H](C)O)C(=O)N[C@H](C(=O)N[C@@H](CO)C(=O)N1CCC[C@H]1C(=O)O)[C@@H](C)O` is reported as 1.7 ± 0.091 g (ICR mice, male, liver; intranasal, 20 mg/kg daily, 4 weeks).
`CCN(CC)CCOc1ccc(-c2nnn(Cc3ccc(OC)cc3)c2N)cc1` gave a remaining compound of 51.6% (rat liver microsomes; concentration not given, time not given).
For `CC[C@H](C)[C@H](NC(=O)[C@H](CCCNC(=N)N)NC(=O)[C@H](CCCNC(=N)N)NC(=O)[C@H](CC(C)C)NC(=O)[C@H](Cc1c[nH]c2ccccc12)NC(=O)[C@H](CCCCN)NC(=O)[C@H](CCCNC(=N)N)NC(=O)[C@H](CCCCN)NC(=O)[C@H](CCCNC(=N)N)NC(=O)[C@H](CCCNC(=N)N)NC(=O)CN)C(=O)NCC(=O)N[C@@H](CCCCN)C(=O)NCC(=O)N[C@H](C(=O)N[C@@H](CCCCN)C(=O)N[C@H](C(=O)N[C@H](C(=O)NCC(=O)NCC(=O)N[C@@H](C)C(=O)N[C@@H](C)C(=O)N[C@@H](CC(C)C)C(=O)N[C@@H](CC(=O)O)C(=O)N[C@@H](Cc1c[nH]cn1)C(=O)N[C@@H](CC(C)C)C(N)=O)[C@@H](C)CC)[C@@H](C)CC)C(C)C`, “chronic toxic concentration” read 5 µM (zebrafish embryos 28 hpf, E3 medium; 24 h).
`O=C1NC2(CC2)COc2ncc(F)cc2[C@H]2COCCN2c2ccn3ncc1c3n2`: “organ-to-brain weight ratio” 3.95 ± 0.77% (Sprague-Dawley rat, female, adrenals; oral, 5 mg/kg/day, 4 weeks dosing, end of recovery).
For `COC(=O)[C@H]1[C@@H](c2ccc(Cl)c(Cl)c2)C[C@@H]2CC[C@H]1N2CCOc1c2ccccc2cc2ccccc12`, the pKa was 5.3 (fluorescence titration; buffer with 10% DMSO; 1 µM).
`CCC1=C(C)C2=C(c3ccc(C(=O)NCCNC(=O)c4ccc(P(=NC5=[O+][Ru-]([Cl])[n+]6ccccc65)(c5ccccc5)c5ccccc5)cc4)cc3)c3c(C)c(CC)c(C)n3[B-](F)(F)[N+]2=C1C.Cc1ccc(C(C)C)cc1.[Cl-]` gave a logP of 3.21 ± 0.08 (LC-MS shake flask; 1-octanol/PBS).
With `N=C(N)NCCC[C@H](NC(=O)[C@H](CCCNC(=N)N)NC(=O)[C@H](CCCNC(=N)N)NC(=O)[C@H](CCC(N)=O)NC(=O)[C@H](CCCNC(=N)N)NC(=O)[C@H](CCCNC(=N)N)NC(=O)[C@H](CCCCN)NC(=O)[C@H](CCCCN)NC(=O)[C@H](CCCNC(=N)N)NC(=O)CNC(=O)[C@H](Cc1ccc(O)cc1)NC(=O)[C@H](Cc1ccccc1)NC(=O)[C@H](Cc1ccccc1)NC(=O)[C@H](Cc1ccccc1)NC(=O)Cc1ccc2ccccc2c1)C(=O)O` the health score was 5 (C57BL/6 mice; intraperitoneal, 5 mg/kg, 0.5 h; direction not given).
`CC[C@H](C)[C@@H](C(=O)N[C@@H](CC(C)C)C(=O)N[C@@H](CO)C(=O)N[C@@H](CO)C(=O)N[C@H](C(=O)N[C@@H](CCC(=O)O)C(=O)N[C@H](C(=O)NCC(=O)N[C@@H](CO)C(=O)N[C@@H](CC(N)=O)C(=O)N[C@H](C(=O)N1C[C@H](O)C[C@H]1C(N)=O)[C@@H](C)O)C(C)C)[C@@H](C)O)N(C)C(=O)[C@H](C)NC(=O)CN(C)C(=O)[C@H](Cc1ccccc1)NC(=O)[C@H](CO)NC(=O)[C@H](CO)NC(=O)[C@H](CCCNC(=N)N)NC(=O)[C@H](CCC(N)=O)NC(=O)[C@H](CC(C)C)NC(=O)[C@H](Cc1ccccc1)NC(=O)[C@H](Cc1c[nH]cn1)NC(=O)[C@H](C)NC(=O)[C@H](CC(C)C)NC(=O)[C@H](CCCNC(=N)N)NC(=O)[C@H](CCC(=O)O)NC(=O)[C@@H](NC(=O)[C@H](C)NC(=O)[C@@H]1CCCCn2cc(nn2)C[C@H](NC(=O)[C@H](CCCNC(=N)N)NC(=O)CC[C@H](NC(=O)CCCCCCCCCCCCCCCCCCC(=O)O)C(=O)O)C(=O)NCC(=O)N[C@@H]([C@@H](C)O)C(=O)N[C@@H](C)C(=O)N[C@@H]([C@@H](C)O)C(=O)N1)[C@@H](C)O` — result for “main peak area remaining”: 98% (RP-HPLC; water; 1.0 mg/mL, 7 days, pH 6.0, 40 °C).
